Published values pooled from the literature.
Parts stem from different laboratories: compare values within a part only.

Block 1 — technique: protein binding microarray; molecule type: double-stranded DNA, one strand shown; sample: in vitro; concentration: not given; reference: not given; reading: higher = stronger binding
Target: Histone acetyltransferase KAT6A, both winged helices, GST fusion (KAT6A, Homo sapiens, UniProt Q92794, residues 1-181)
Setting: 8-mer, flanks averaged, mean of 2 arrays, mostly near background
Target sequence (chain): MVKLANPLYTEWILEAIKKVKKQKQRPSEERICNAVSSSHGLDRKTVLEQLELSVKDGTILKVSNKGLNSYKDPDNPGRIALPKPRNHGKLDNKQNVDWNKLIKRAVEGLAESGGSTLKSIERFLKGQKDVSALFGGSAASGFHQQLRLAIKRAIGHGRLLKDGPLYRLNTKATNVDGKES
Strand | E-score
CGCTGTAG | 0.135
CACGTCCC | -0.0743
TCAGCTCA | -0.0781
CACGCTGC | 0.117
AACTAAGC | -0.0688
AGCTTTCG | -0.14
CTGTAGTC | -0.101

Block 2 — technique: protein-binding microarray; molecule type: double-stranded DNA, one strand shown; sample: in vitro; concentration: 0.8 µM; setting: whole 60-bp probe, no competitor; reading: higher = stronger binding
Target: Centromere-binding protein 1, full length, N-terminal tag (CBF1, Saccharomyces cerevisiae, UniProt P17106, residues 1-351)
Sequence of UniProt P17106 (whole entry, looked up): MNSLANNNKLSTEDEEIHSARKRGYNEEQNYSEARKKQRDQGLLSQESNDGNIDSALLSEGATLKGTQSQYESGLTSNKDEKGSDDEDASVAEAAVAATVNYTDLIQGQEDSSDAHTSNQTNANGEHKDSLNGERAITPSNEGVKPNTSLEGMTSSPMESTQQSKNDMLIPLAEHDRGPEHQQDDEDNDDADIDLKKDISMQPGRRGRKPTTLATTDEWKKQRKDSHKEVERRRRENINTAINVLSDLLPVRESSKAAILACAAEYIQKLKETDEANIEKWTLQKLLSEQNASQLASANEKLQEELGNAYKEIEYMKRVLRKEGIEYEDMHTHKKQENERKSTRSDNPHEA
Strand | fluorescence intensity
GAACGCAACTGCAACCACATGCAAATGCTGGCATAGGTCTTGATTCGCTTGACGCTGCTG | 612 a.u.
CCTAACTACTATAAGATCGTGCAATAGCTTCGTACAGTCTTGATTCGCTTGACGCTGCTG | 552 a.u.
GAACTTTGCTTTGCGGGTGAGAGGAAAAAAAAGTAGGTCTTGATTCGCTTGACGCTGCTG | 594 a.u.
GAATCACCGTTGGACATCAGGATTTCCCACGATTAGGTCTTGATTCGCTTGACGCTGCTG | 503 a.u.

Block 3 — technique: protein-binding microarray; molecule type: double-stranded DNA, one strand shown; sample: in vitro; concentration: 2200 nM top; setting: 60-bp whole probe; with: salmon DNA 0.4 mg/ml; reference: random background probes; reading: higher = stronger binding
Target: Interferon regulatory factor 7, full length, phosphomimetic (IRF7, Homo sapiens, UniProt Q92985, residues 1-503, S471D/S472D/S475D/S476D/S477D/S483D/S484D/S487D)
Sequence of UniProt Q92985 (whole entry, unmodified, looked up): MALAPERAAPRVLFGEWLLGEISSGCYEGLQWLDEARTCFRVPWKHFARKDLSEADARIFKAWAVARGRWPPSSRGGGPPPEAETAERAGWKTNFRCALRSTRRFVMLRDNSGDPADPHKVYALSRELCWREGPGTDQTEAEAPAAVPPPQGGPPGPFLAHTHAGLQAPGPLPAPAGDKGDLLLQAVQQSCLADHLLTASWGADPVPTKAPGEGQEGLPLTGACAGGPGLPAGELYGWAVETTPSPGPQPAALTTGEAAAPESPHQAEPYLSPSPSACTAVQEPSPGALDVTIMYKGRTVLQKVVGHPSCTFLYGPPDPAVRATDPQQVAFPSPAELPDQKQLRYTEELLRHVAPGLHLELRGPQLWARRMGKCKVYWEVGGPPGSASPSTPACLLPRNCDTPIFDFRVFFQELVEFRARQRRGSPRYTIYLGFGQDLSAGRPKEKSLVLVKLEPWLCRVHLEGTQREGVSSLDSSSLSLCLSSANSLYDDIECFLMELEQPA
All sequences stand within: GCCTAGCAC … GTGCTAGGTCTTGATTCGCTTGACGCTGCTG
Strand | fitted relative affinity
TTAGGTTTCCTTATCATTTA | 1.59 z-score
TTAGGTCTCGGTATCGGTCA | 0.681 z-score
CTAGATATCAGTTTCGATTA | 5.9 z-score
TTAGATTTCTGTTTCGATTA | 6.33 z-score
GATTTCTTCCCTGTGAAAAC | 1.66 z-score
GACGATCTCAGCTTCGAGAC | 0.17 z-score

Mixed results
Substance | target | assay | system | conditions | scale | quantity | result
PhoQ, residues 284 288 289 292 302 303 GANMMA | PhoP, residues 12 14 15 18 19 GHCSL (Escherichia coli, UniProt P23836) | Sort-seq, item: YFP reporter | E. coli | PhoQ-PhoP variant library, with: 10 µM Mg2+ | reference: high Mg2+ state, higher = stronger signaling | fold induction | 5.36

For quick reference, copied from above (block 2):
Strand | fluorescence intensity
GAATCACCGTTGGACATCAGGATTTCCCACGATTAGGTCTTGATTCGCTTGACGCTGCTG | 503 a.u.
CCTAACTACTATAAGATCGTGCAATAGCTTCGTACAGTCTTGATTCGCTTGACGCTGCTG | 552 a.u.
